Published values from different studies.
Each numbered part is a random draw from the data of one study; scales do not carry over between parts.

Block 1
Target: Interferon regulatory factor 7, full length, phosphomimetic (IRF7, Homo sapiens, UniProt Q92985, residues 1-503, S101K/S471D/S472D/S475D/S476D/S477D/S483D/S484D/S487D)
UniProt Q92985, sequence (whole entry, unmodified, looked up): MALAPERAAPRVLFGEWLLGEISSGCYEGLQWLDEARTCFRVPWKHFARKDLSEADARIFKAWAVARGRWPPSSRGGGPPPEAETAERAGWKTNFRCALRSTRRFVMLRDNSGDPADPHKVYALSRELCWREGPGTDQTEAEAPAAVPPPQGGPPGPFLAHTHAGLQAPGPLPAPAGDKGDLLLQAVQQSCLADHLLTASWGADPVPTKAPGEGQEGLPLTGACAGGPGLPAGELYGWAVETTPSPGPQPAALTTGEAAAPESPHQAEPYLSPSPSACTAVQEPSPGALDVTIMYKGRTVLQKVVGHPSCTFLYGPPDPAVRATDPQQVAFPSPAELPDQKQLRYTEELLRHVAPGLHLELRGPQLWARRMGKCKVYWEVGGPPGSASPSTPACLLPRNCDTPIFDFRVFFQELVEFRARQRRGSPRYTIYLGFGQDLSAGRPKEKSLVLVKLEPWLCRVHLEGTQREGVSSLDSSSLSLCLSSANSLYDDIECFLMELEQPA
Method: protein-binding microarray
Form: double-stranded DNA, one strand shown
Medium: in vitro
Tested at: 250 nM
Notes: 60-bp whole probe
Together with: salmon DNA 0.4 mg/ml
Baseline: random background probes
Direction: higher = stronger binding
Shared flanks, not repeated: GCCTAGCAC … GTCTTGATTCGCTTGACGCTGCTG
`TCATACATGGGTTTTCAGACTGTGCTA` gave a log fluorescence of -0.0814 z-score.
For `TTAGGTATCCTTTGCCTTTAGTGCTAG`, the log fluorescence was 0.136 z-score.
`TCAAAACTCTTTATTTAACTGTGCTAG` has a log fluorescence of 0.395 z-score.
The log fluorescence of `GACGGACTGAGACTGGGGACGTGCTAG` is reported as -0.188 z-score.
With `GACGATATCAGTCTGGAGACGTGCTAG` the log fluorescence was -0.606 z-score.

Block 2
Target: RNA binding protein fox-1 homolog 2, RRM domain, GST-SBP tag (RBFOX2, Homo sapiens, UniProt O43251-10, residues 100-194)
Method: RNA Bind-n-Seq
Form: RNA
Medium: in vitro
Tested at: 365 nM
Notes: natural RNA segment, single round, ends assumed
Baseline: no-protein control
Direction: higher = stronger binding
Shared flanks, not repeated: GGGAGUUCUACAGUCCGACGAUC … UGGAAUUCUCGGGUGCCAA
Target sequence (chain): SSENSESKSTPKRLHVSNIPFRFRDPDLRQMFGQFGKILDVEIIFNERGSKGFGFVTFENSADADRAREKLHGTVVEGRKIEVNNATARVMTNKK
Under “RBNS enrichment (R)”, `AUCUGGGCUGAGCCAAAGUCCCUUUUGGAAAUACAAGCCAUAACAUUCGAAGGACAUCAGCGACCUUGGCUUGUUUAGGUGAUUUUACUUCCAGCUGCAGGUAGUCUUGA` is recorded as 0.337.
`GCCGCUGCCACUUCACCCUGUGGGAAGUGGCCCCAGCCAUCUCCUCUAGACCAAGGCAGGCAGCCCCGACAUCUGCUUCCUCUAUCGCCCAAUGCAAAAUCGAUGAAAUG` — result for “RBNS enrichment (R)”: 0.308.
`CUUCACCUUUCUGUCUGAAAUACAACUGUGGCUUUUGCAGUAGAAGACUAUGUUGGUGGUUUCAUUGUGUUCUGGGGUCUGGGGUGGGAAAGAAAAAGAAAAAGCUGUAC`: “RBNS enrichment (R)” 0.956.
`GGAGGCAUGUGCCUUGGGAAAAUAGGAAUUGUGUGUUUGUUUUUGUUUUUGUUUUUGUUUUUUUCUGGAUAAGGAAAACAGAGAACAACAAUAGAUACCGCUGAAGGAUC`: “RBNS enrichment (R)” 0.634.
`AGAGCAAUAAGCAUCAUGCAUCUCCCCGAUUCCCACUAGCACCCCUCUGCCUCUGGCUCAGGUUGCUCAAAGCACAGAUCCCCUCUUAUCCCUGUCCCCAGGACCGAAAC` — result for “RBNS enrichment (R)”: 1.53.
`UCUGGCCAUACUUGCAUUAGUGACUGUCUUGCCUUAACCACACUUAAGCAACCCACAAAUUUCUUCUCAGAUUUGUUUCCUAGAUUACUUAUGAUACUCAUCCCAUGUCU` — result for “RBNS enrichment (R)”: 1.26.

Block 3
Target: Sal-like protein 4, full length isoform B (SALL4, Homo sapiens, UniProt Q9UJQ4-2, residues 1-616)
Method: universal PBM
Form: double-stranded DNA, one strand shown
Medium: in vitro
Tested at: not given
Notes: 8-mer, flanks averaged, mean of replicates
Direction: higher = stronger binding
`AGTGGCAC` gave an E-score of -0.182.
For `ATTCCTTC`, the E-score was 0.0612.
The E-score of `CCTCTTGC` is reported as -0.224.
`ATTACCTG` gave an E-score of 0.208.

Mixed results
For `PhoQ, residues 284 288 289 292 302 303 SSLVEF`, the fold induction was 1.82 (PhoP, residues 12 14 15 18 19 HLGGL (Escherichia coli, UniProt P23836); Sort-seq, item: YFP reporter; E. coli; PhoQ-PhoP variant library, together with: 10 µM Mg2+; baseline: high Mg2+ state, higher = stronger signaling).

Repeated from above (block 1):
`TCAAAACTCTTTATTTAACTGTGCTAG` has a log fluorescence of 0.395 z-score.
The log fluorescence of `GACGGACTGAGACTGGGGACGTGCTAG` is reported as -0.188 z-score.
